Results pooled from the literature.
Each numbered part is a random draw from the data of one study; scales do not carry over between parts.

Sample 1
Target: RNA binding protein fox-1 homolog 2, RRM domain, GST-SBP tag (RBFOX2, Homo sapiens, UniProt O43251-10, residues 100-194)
Technique: RNA Bind-n-Seq
Form: RNA
Medium: in vitro
Concentration: 365 nM
Setting: natural RNA segment, single round, ends assumed
Relative to: no-protein control
Direction: higher = stronger binding
Construct (chain): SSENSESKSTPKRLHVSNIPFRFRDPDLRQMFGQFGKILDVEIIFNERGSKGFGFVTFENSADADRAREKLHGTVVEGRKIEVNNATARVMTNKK
Strand | RBNS enrichment (R)
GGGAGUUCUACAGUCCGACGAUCUGACCGUGAGGGCCAGAGAGAGCCUUCACGGACGGCGCUGGUGGGUGAGCCGAGCUGUGGUGGCGGCUGGUUUAAAAGGGAUCCAGUUUCCAGCUGCAGGUUUGUUAGAGUGGAAUUCUCGGGUGCCAA | 0.816
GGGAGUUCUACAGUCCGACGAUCAGUGAAUGUUCUAUCAGCAUGAGUGACCAGGGCAAGGACCUGCUGGACAGUGUGUGAUUGGUUCACCAUGACACGAGGGACGAUGCUCAUGGGAAGUGGGGGCACAGGGUUGGAAUUCUCGGGUGCCAA | 15.3
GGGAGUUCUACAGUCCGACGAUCCACUCUGCAUUAUAGCAGCAGCUUAUUUCUCUAAGGCUGGACAGCCUGGCUCUCGGCAGUGACGUCCUCCCACACCUGGUCACAAGUAGUAGUGGCUGUGCUAUACCCAGUGGAAUUCUCGGGUGCCAA | 0.342
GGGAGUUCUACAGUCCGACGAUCUGAAACUUUACAUUUGUUGACUUUUUUUCAUUCUCAUUUAAAAUAUAUUGUGCUAUGAUAACCAACCUUCUUCCAAGGAGUGACCAUUACUGCCUACAUUUGCGUUGCUUUGGAAUUCUCGGGUGCCAA | 0.674
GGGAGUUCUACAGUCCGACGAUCCUAUGGAUUAGUUUGAACUGUCAAAUCCUUGCAUACUUCUGUGACACCCCUGCCCAUUUUCUGUCUUUAAUUAACCAAGGUGUUAGGUGUGACUGUCACAACUGUUAUGUUGGAAUUCUCGGGUGCCAA | 0.764
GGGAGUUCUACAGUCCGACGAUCUUUUCCCAUCCACUGAAACAGCCUGUUGUAGCAAGAGGCUUUCAAGAGUGCAGUGGAGUUGCGCUGGCCAUCAGUGUUUGGGGUCUGAGUUUGAUAGACUAGUGCAGCGAUGGAAUUCUCGGGUGCCAA | 0.888
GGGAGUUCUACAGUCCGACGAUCAAACAUAAGUUUUAUUUAAAAAAAAAAAAAGAAAGAAAAAAUAGUAAAUUCCCAGAAAUUCAGUGUUUAGACGAGGGAAUUUAAUUCCUAUUUUGUCCAUGUUGGUGAUGUGGAAUUCUCGGGUGCCAA | 1.17
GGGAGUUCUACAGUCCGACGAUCUGAUCAAUGAGGGCGGGGCCUGGCGUCUGAUCUGGGGCCGCCCUUACGGGGCAGGGCUCAGUCCUGACGCUUGCCACCUGCUCCUACCCGGCCAGGAUGGCUGAGGGCGGUGGAAUUCUCGGGUGCCAA | 0.185
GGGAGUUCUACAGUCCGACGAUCACAGAUUUUGUGUUCUUUGGCCCUUCAAAUACUGGUGUUACAUUGUUGCUGCAGAUAAAUGAUGAUUGUCGUGGGAUAUCUGGAUCACUGAGCUCUGUGCUUUCAUUCCUUGGAAUUCUCGGGUGCCAA | 0.274

Sample 2
Target: Fragile X messenger ribonucleoprotein 1, C-terminal low-complexity region (Fmr1, Mus musculus, UniProt P35922)
Technique: RNA Bind-n-Seq
Form: RNA
Medium: in vitro
Concentration: 200 nM
Setting: whole 134-nt RNA, ends assumed
Together with: 150 mM LiCl
Relative to: input library
Direction: higher = stronger binding
All molecules: 7-deaza-guanosine replaces G
Strand | log2 enrichment
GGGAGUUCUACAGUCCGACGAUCGUCCUGUGCUACACAUCGUAUGUACCGAAUCGGGUUUGGGAAAAAAAGGGAAAAAGGGAAAGUAUUAUGUUACGCCGUUCGGAUCUGCACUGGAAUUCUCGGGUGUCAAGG | -0.337
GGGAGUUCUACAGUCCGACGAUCUCAAGUCCUGUGCUACACAUCGUAUGUACCGAAUCGGGCCCGGGCCCGGGCCCGGAAAGUAUUAUGUUACGCCGUUCGGAUCUGCACUUCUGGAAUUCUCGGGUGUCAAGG | -0.867
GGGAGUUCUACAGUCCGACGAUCUGGCCCUGGUGGCAUGCGGGGAGGAAGAGGUGGCCUCAUGGAUCGUGGCGGUCCCGGUGGAAUGUUCAGAGGUGGCCGUGGUGGAGACAGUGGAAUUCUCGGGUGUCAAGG | -0.243
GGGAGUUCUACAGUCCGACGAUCUCGGACGCCGCCAACCUGCACGAGUUCCACGCGGACCUGCGCUCAUGCUUUGCACCCCAGCACAUGGCCAUGCUGUGUAGCCCCAUCCUCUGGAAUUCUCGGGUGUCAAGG | 0.405
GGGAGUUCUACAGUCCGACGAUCUCAAGUCCUGUGCUACACAUCGUAUGUACCGAAUCGGGAAAGGAAAGGGAAAGGAAAGUAUUAUGUUACGCCGUUCGGAUCUGCACUUCCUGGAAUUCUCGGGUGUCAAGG | -1.02
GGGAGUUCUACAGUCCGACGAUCAGUCCUGUGCUACACAUCGUAUGUACCGAAUCGGGUUUUUGGUUUUUGGGUUUUUGGGAAAGUAUUAUGUUACGCCGUUCGGAUCUGCACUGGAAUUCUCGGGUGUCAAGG | -1.45
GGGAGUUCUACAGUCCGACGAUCUCCUGUGCUACACAUCGUAUGUACCGAAUCAAAUUUUUAAAUUUUUAAAUUUUUUUAAAAAAGUAUUAUGUUACGCCGUUCGGAUCUGCAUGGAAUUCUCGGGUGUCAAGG | -2.55
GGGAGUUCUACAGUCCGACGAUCUAGGUGUUAUCUUCAGGAAGGCACACUGGACCUGCUAAAUUAACAAAUGGAAAGAAAGCGUAAGUACUUGAAGACGUUUACAACUUCAGAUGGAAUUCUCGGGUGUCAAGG | -2.66

Sample 3
Target: RING finger protein unkempt homolog, zinc fingers 1-6, GST-SBP tag (UNK, Homo sapiens, UniProt Q9C0B0, residues 30-357)
Technique: RNA Bind-n-Seq
Form: RNA
Medium: in vitro
Concentration: not given
Setting: RNA with constant flanks, human-mouse chimeric sites, ends assumed
Relative to: input RNA pool
Direction: higher = stronger binding
Construct (chain): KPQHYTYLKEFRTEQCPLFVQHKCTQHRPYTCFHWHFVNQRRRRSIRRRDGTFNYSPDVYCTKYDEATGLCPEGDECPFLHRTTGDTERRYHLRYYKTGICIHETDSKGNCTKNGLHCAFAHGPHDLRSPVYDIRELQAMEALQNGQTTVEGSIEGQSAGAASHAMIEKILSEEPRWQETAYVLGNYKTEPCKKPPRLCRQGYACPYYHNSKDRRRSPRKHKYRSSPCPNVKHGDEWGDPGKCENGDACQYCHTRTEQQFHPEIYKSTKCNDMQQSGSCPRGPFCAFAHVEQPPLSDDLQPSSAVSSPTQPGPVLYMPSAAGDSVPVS
Strand | bound/input enrichment [ratio]
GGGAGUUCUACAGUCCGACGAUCGGUGGGGUGGUCAUUGCCGUUUGAGCUGCUGAUUUUCAUGAGUCGCCUUCAAAACUCUCGUGUAGGGUUGACAAUGUGGGGGGGUGGGGGAUCCAGCUAUUUUUUUUUCCCCAGCCCCCACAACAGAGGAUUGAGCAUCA | 2.96
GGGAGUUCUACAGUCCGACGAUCUGUAACUUAUCUGUAAAAGGUUCCCCCCCCUACUGUCAAAAAAAUAUGCAUGUAUAGUAAUUAGGACUUCAUUCCUCCAUGUUUUCUUCCCUUAUCUUACUGUCAUUGUCCUUAAACCUUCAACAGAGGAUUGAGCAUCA | 2.09
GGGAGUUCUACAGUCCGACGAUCGAGUCGAGCAAACUUGAAACAAUUCGUUAUCUUGCAGCCUCAGUGUUCACUUGCUUGGCGAUAGCAUUGGGGUUUUAUAUAGAUUCUAAGGAGAACUUUAAUGCUCACUGCCGCUGCUGCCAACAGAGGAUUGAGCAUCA | 0.177
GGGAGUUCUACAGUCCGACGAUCGCGGCAGAAUCAUGGAGGACAUAAUGCAGCUCCCCAAAGCGCGCGUCAACGCCAGCAUGCUAGCUCAAUUCAUCGACCGGCCCGUGUGCUUCGUGGGGAAGCUGGAAAAGAUUCAUCCCACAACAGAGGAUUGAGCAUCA | 0.095
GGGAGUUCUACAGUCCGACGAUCUGACAAGGGCACUGCAGAGCCAUGCCUUUCCUUGACAUACAGAAAAAGCUGGGCAUCAGCCUGGACCGGCACUUUAUAAUCCAGAGUGCAGAACAGCCCUACAAGAUCGCCGCUCGGUGCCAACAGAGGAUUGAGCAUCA | 0.0743
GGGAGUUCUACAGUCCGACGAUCUACUCAACUUUCUUGCCACAUUUUGAAUUCCAAGACAUUAUUCCUCCAGAUGACUUCCUAACGAGUGAUGAAGAAGUAGAUUUGGUUUUAUUUGGAACUAUGAGAGGUCAUGUGGUUGGACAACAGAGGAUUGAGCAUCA | 0.262
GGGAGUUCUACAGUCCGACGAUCUAAGUCCAUUUGUAAGCCUUCGCUCAUUAUAUUUUAAAUUCUGGACCAAUAGUGUUUGUUUCCUGAUUAUUGUAUCCAAUACUUUGCCUAGUAUGUAACUCACUCUUACUGAUAAUAAAACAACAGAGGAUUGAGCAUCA | 6.62
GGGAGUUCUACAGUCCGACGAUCACCAUUUUCGCGGUUCAAGGUUUUGUGUGUAUUUACUUACGGUAUUAAAUUAUUAUUCUGCUUAGCUUAUAAUAAGGAUAAUUGCAUUUAAAGAGGUUACUGAAUGUUACUCUGAAACUUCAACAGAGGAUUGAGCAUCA | 0.434
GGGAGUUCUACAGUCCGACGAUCGGGACUGAUUCAUCCCAAGGACAGGCCACCCCAUUUGGUGUUUGGAAUGAUGACAGUAUGGAAGGGCCUAGUCAAAAUUUUGAAGCUGAGUCAAUUCAGGAUGCCAUGAGUAUGGAAGAGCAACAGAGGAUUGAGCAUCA | 0.215
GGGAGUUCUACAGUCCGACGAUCCAGCCUCAGAGCCCUGACUUCCUGGAUAUUACCAACCCUAAAGCGGUAUUAGAAAAUGCAUUGAGAAACUUUGCCUGUCUGACGACUGGAGAUGUGAUUGCUAUCAACUACAAUGAGAAGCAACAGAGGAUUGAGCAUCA | 0.477
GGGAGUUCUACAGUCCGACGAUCUCUGAGGUACCACUGAAGAGACCUUAAAAGAAUCAUUUGAGGGCUCUGUUCGUGCAAGAAUAGUCACUGAUCGGGAAACUGGUUCUUCCAAAGGGUUUGGUUUUGUAGACUUUAAUAGUGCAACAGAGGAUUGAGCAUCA | 0.738

Sample 4
Target: Histone acetyltransferase KAT6A, winged helix 1, GST fusion (KAT6A, Homo sapiens, UniProt Q92794, residues 1-85)
Technique: protein binding microarray
Form: double-stranded DNA, one strand shown
Medium: in vitro
Concentration: not given
Setting: 8-mer, flanks averaged, mean of 2 arrays, mostly near background
Relative to: not given
Direction: higher = stronger binding
Residues (chain): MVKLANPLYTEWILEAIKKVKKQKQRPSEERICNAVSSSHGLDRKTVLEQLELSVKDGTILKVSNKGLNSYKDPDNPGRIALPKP
Strand | E-score
AAAGCTGT | 0.0127
TCTGTGCA | -0.248
AGTACTGA | -0.00553
GAAATACA | -0.174
ACGAAAAC | -0.125
GAAACGCA | 0.0595
CTGGGGCA | -0.215
CTCTATTC | 0.0508
CAACCAAG | -0.209
AGGTGTAA | -0.163
ACAGGACA | -0.15
GGCTCAAA | 0.0333
AGAAGGAT | -0.167
CGAACGGC | 0.327
ATAGGGCC | 0.0309
GGACCCCC | -0.00303
TGTCCAAA | -0.0758
CATTCGAC | -0.129
GGATCAAC | -0.0868
AGATAGGG | -0.18
AACCTGAA | -0.29
CGATCACA | -0.204
ACTGTAGG | -0.158
ACCAGTAA | -0.0233
CACTTAAA | -0.229

For quick reference, copied from above (sample 4):
Strand | E-score
AGGTGTAA | -0.163
ACAGGACA | -0.15
GGCTCAAA | 0.0333
AGAAGGAT | -0.167
CGAACGGC | 0.327
ATAGGGCC | 0.0309
GGACCCCC | -0.00303
TGTCCAAA | -0.0758
